Published values gathered from unrelated publications.
Protocols differ between the studies behind these lines. ± marks the error that the study gave.

For `CCOC(=O)C(C)NP(=O)(COC(CF)CN1CN2C=C(c3ccc([N+](=O)[O-])cc3)NC2=NC1=O)NC(C)C(=O)OCC` (stereo not drawn), the EC50 was > 100000 nM (herpes simplex virus 1; cytopathic effect; HEL, KOS, TK+).
`C=C1[C@H](CO)[C@@H](O)C[C@@H]1n1cnc2c(=O)[nH]c(N)nc21` gave an EC50 of < 50 nM (Hepatitis B virus; viral replication, inhibitor).
The EC50 of `CC[C@H]1CN2CCc3cc(OC)c(OC)cc3[C@@H]2C[C@@H]1C[C@H]1NCCc2cc(OC)c(OC)cc21` is reported as 11 nM (Feline infectious peritonitis virus; viral replication, visual scoring; 48 h).
`Nc1ncnc2c1c(-c1cccc(Cl)c1)cn2[C@@H]1O[C@H](CO)[C@@H](O)[C@H]1O` gave an EC50 of 240 ± 48 nM (Trichomonas vaginalis; resorufin; G3, metronidazole-sensitive; 24 h + 2 h, 2% O2).
`C/C=C/[C@@H]1C=C[C@@H]2C[C@H](C)CC[C@H]2[C@]1(C)/C(O)=C1/C(=O)N[C@@H](CO)C1=O` gave an EC50 of 2500 nM (Trichomonas vaginalis; viability; 17 h).
`CC(C)OP(=O)(CO[C@H](CF)Cn1cnc(N)nc1=O)OC(C)C` gave an EC50 of 39000 ± 19000 nM (herpes simplex virus 1; cytopathic effect; HEL, KOS, TK+).
`COC(=O)Nc1nc2ccc(C(=O)c3cccs3)cc2[nH]1` gave an EC50 of 1060 nM (Hepatitis B virus; viral replication, inhibitor).
`O=C(Nc1ccc([N+](=O)[O-])cc1Cl)c1cc(Cl)ccc1O` gave an EC50 of 290 ± 20 nM (Feline infectious peritonitis virus; viral replication, visual scoring; 48 h).
With `O=c1[nH]c(=O)c2ncn(CCOCP(=O)(O)O)c2[nH]1` the EC50 was 21500 ± 7600 nM (herpes simplex virus 1; cytopathic effect; HEL, KOS).
`CCCN1C(=O)c2cccc3cc(NC(=O)[C@H]4C[C@@H](P(=O)(OCC)OCC)N(C)O4)cc(c23)C1=O` (racemic) has an EC50 of 32000 nM (varicella-zoster virus; viral plaque formation, plaque reduction; HEL, thymidine kinase positive).
`Nc1ncnc2c1c(-c1ccc([N+](=O)[O-])cc1)cn2[C@@H]1O[C@H](CO)C[C@H]1O` has an EC50 of 1340 ± 216 nM (Trichomonas vaginalis; resorufin; G3, metronidazole-sensitive; 24 h + 2 h, 2% O2).
For `O=c1[nH]c(=O)n([C@H]2C[C@H](O)[C@@H](CO)O2)cc1/C=C/Br`, the EC50 was 26 nM (varicella-zoster virus; plaque formation; HEL, TK+ Oka; 50% plaque reduction).
With `Nc1ncnc2c1c(-c1cccc(C(F)(F)F)c1)cn2C1OC(CO)CC1O` (stereo not drawn) the EC50 was 72600 ± 22300 nM (Trichomonas vaginalis; resorufin; G3, metronidazole-sensitive; 24 h + 2 h, 2% O2).
The EC50 of `C#CCC(Cc1cnc2nc(N)nc(N)c2n1)c1ccc(C(=O)N[C@@H](CCC(=O)O)C(=O)O)cc1` (stereo partly drawn) is reported as < 50 nM (Hepatitis B virus; viral replication, inhibitor).
For `Nc1ncnc2c1ncn2CCOCP(=O)(O)O`, the EC50 was 3 ± 1.4 µg/mL (herpes simplex virus 2; cytopathic effect; HEL, clinical isolate NS).
The EC50 of `Nc1ncnc2c1c(-c1ccc(C(F)(F)F)cc1)cn2[C@@H]1O[C@H](CO)C[C@H]1O` is reported as 260 ± 75 nM (Trichomonas vaginalis; resorufin; G3, metronidazole-sensitive; 24 h + 2 h, 2% O2).
With `C[C@H](Cn1cnc2c(=O)[nH]c(=O)[nH]c21)OCP(=O)(O)O` the EC50 was > 100000 nM (herpes simplex virus 2; cytopathic effect; HEL, G).
`CCCCN1C(=O)c2cccc3cc(NC(=O)[C@H]4C[C@@H](P(=O)(OCC)OCC)N(C)O4)cc(c23)C1=O` (racemic) has an EC50 of 32000 nM (varicella-zoster virus; viral plaque formation, plaque reduction; HEL, thymidine kinase positive).
With `Nc1ncn([C@H]2C[C@H](O)[C@@H](CO)O2)c(=O)n1` the EC50 was 1330 nM (Hepatitis B virus; viral replication, inhibitor).
`Nc1ccn([C@@H]2O[C@H](CO)[C@@H](O)C2(F)F)c(=O)n1` has an EC50 of 1080 ± 350 nM (Feline infectious peritonitis virus; viral replication, visual scoring; 48 h).
With `Nc1ncnc2c1c(-c1ccc(Cl)cc1)cn2[C@@H]1O[C@H](CO)C[C@H]1O` the EC50 was 170 ± 44 nM (Trichomonas vaginalis; resorufin; G3, metronidazole-sensitive; 24 h + 2 h, 2% O2).
For `Nc1ncn(CC(OCP(=O)(O)O)C(F)(F)F)c(=O)n1` (stereo not drawn), the EC50 was > 100000 nM (herpes simplex virus 1; cytopathic effect; HEL, KOS, TK+).
The EC50 of `O=c1[nH]c(=O)c2ncn(C[C@@H](CF)OCP(=O)(O)O)c2[nH]1` is reported as > 329000 nM (herpes simplex virus 2; cytopathic effect; HEL, G).
`Nc1ccn(C[C@@H](CO)OCP(=O)(O)O)c(=O)n1` gave an EC50 of 0.6 ± 0.39 µg/mL (herpes simplex virus 2; cytopathic effect; HEL, clinical isolate PB).
For `Nc1ncnc2c1c(-c1cc(Cl)cc(Cl)c1)cn2[C@@H]1O[C@H](CO)[C@@H](O)[C@H]1O`, the EC50 was 1990 ± 560 nM (Trichomonas vaginalis; resorufin; G3, metronidazole-sensitive; 24 h + 2 h, 2% O2).
`CC[C@@H](C(=O)[C@@H](C)[C@@H](O)[C@H](C)[C@@H]1O[C@@H]([C@@H](CC)C(=O)O)CC[C@@H]1C)[C@H]1O[C@]2(C=C[C@@H](O)[C@]3(CC[C@@](C)([C@H]4CC[C@](O)(CC)[C@H](C)O4)O3)O2)[C@H](C)C[C@@H]1C` has an EC50 of 700 ± 130 nM (Feline infectious peritonitis virus; viral replication, visual scoring; 48 h).
With `Nc1ncnc2c1c(-c1ccc(OC(F)(F)F)cc1)cn2[C@@H]1O[C@H](CO)C[C@H]1O` the EC50 was 790 ± 292 nM (Trichomonas vaginalis; resorufin; G3, metronidazole-sensitive; 24 h + 2 h, 2% O2).
The EC50 of `O=c1[nH]c(=O)c2ncn(C[C@@H](CO)OCP(=O)(O)O)c2[nH]1` is reported as 16000 ± 6000 nM (herpes simplex virus 2; cytopathic effect; HEL, G).
The EC50 of `Nc1ncnc2c1c(-c1cncnc1)cn2[C@@H]1O[C@H](CO)[C@@H](O)[C@H]1O` is reported as 9800 ± 483 nM (Trichomonas vaginalis; resorufin; G3, metronidazole-sensitive; 24 h + 2 h, 2% O2).
The EC50 of `NC1=NC(=O)N(C[C@@H](CF)OCP(=O)(O)O)CN1` is reported as > 100000 nM (herpes simplex virus 1; cytopathic effect; HEL, KOS, TK+).

Repeated from above:
`CC[C@@H](C(=O)[C@@H](C)[C@@H](O)[C@H](C)[C@@H]1O[C@@H]([C@@H](CC)C(=O)O)CC[C@@H]1C)[C@H]1O[C@]2(C=C[C@@H](O)[C@]3(CC[C@@](C)([C@H]4CC[C@](O)(CC)[C@H](C)O4)O3)O2)[C@H](C)C[C@@H]1C` has an EC50 of 700 ± 130 nM (Feline infectious peritonitis virus; viral replication, visual scoring; 48 h).
With `Nc1ncnc2c1c(-c1ccc(OC(F)(F)F)cc1)cn2[C@@H]1O[C@H](CO)C[C@H]1O` the EC50 was 790 ± 292 nM (Trichomonas vaginalis; resorufin; G3, metronidazole-sensitive; 24 h + 2 h, 2% O2).
The EC50 of `O=c1[nH]c(=O)c2ncn(C[C@@H](CO)OCP(=O)(O)O)c2[nH]1` is reported as 16000 ± 6000 nM (herpes simplex virus 2; cytopathic effect; HEL, G).
The EC50 of `Nc1ncnc2c1c(-c1cncnc1)cn2[C@@H]1O[C@H](CO)[C@@H](O)[C@H]1O` is reported as 9800 ± 483 nM (Trichomonas vaginalis; resorufin; G3, metronidazole-sensitive; 24 h + 2 h, 2% O2).
